Published values collected from several papers.
Parts stem from different laboratories: compare values within a part only.
UniProt P53350, sequence (whole entry, looked up): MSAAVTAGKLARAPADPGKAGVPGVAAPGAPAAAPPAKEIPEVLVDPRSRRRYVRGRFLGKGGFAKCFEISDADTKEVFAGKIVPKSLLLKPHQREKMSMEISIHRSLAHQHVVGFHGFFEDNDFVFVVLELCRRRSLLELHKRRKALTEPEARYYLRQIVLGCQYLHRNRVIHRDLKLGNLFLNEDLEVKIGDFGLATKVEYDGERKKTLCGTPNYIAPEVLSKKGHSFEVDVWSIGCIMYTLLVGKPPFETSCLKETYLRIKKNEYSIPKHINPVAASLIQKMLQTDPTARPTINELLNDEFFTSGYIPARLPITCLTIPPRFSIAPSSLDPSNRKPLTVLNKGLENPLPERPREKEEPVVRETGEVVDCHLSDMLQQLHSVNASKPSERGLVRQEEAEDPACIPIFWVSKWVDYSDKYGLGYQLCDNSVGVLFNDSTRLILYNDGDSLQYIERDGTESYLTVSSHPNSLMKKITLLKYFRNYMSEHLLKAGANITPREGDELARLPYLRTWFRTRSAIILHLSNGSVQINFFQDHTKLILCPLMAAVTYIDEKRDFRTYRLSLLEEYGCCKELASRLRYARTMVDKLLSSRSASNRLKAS
UniProt Q13873, sequence (whole entry, looked up): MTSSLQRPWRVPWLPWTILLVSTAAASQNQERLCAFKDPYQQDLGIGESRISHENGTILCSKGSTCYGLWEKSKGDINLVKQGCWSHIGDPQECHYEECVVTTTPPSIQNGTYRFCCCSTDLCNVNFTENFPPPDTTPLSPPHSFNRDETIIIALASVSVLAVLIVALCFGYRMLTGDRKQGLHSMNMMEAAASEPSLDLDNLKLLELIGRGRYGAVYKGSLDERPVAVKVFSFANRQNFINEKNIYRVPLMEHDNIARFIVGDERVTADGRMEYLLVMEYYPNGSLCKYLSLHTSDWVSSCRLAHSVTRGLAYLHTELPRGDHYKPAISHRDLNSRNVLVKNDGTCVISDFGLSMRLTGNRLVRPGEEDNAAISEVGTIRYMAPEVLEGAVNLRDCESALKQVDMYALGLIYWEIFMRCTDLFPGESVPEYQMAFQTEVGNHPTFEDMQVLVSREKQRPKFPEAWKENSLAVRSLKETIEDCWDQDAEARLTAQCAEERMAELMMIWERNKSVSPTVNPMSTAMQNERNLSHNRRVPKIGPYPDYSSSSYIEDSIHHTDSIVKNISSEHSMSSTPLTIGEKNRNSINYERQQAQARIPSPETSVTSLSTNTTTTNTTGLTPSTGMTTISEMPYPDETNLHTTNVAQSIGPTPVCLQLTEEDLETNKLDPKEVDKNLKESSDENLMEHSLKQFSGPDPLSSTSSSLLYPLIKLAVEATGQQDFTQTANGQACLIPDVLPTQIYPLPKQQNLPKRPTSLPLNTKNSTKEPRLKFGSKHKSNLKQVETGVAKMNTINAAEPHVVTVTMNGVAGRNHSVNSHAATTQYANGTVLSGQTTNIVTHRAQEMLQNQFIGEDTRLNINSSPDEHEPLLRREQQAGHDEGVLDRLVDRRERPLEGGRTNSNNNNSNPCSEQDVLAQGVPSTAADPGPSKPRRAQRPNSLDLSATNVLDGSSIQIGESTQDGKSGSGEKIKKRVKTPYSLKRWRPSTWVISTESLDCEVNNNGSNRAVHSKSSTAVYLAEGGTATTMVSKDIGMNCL
UniProt Q12851, sequence (whole entry, looked up): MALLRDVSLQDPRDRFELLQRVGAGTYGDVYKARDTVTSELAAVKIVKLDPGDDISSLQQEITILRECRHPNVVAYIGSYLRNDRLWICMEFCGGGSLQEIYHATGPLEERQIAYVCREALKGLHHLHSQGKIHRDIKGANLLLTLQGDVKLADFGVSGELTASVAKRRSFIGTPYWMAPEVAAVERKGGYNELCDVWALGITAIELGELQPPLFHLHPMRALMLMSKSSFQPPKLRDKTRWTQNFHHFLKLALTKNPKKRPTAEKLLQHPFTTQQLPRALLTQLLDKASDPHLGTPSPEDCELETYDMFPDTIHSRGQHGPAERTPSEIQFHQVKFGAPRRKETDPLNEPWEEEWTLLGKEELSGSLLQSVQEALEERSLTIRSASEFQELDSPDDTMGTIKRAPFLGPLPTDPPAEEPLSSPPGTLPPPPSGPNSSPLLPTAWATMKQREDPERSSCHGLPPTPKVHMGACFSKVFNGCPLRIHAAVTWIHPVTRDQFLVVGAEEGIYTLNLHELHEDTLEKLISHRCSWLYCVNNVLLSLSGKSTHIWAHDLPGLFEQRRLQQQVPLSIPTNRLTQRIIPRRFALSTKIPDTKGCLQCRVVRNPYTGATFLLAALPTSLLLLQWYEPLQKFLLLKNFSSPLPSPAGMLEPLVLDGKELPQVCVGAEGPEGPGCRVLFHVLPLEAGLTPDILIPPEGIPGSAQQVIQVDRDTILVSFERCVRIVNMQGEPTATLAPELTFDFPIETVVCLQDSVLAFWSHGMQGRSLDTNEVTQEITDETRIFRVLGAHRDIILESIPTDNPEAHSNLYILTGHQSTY
UniProt Q9Y5S2, sequence (whole entry, looked up): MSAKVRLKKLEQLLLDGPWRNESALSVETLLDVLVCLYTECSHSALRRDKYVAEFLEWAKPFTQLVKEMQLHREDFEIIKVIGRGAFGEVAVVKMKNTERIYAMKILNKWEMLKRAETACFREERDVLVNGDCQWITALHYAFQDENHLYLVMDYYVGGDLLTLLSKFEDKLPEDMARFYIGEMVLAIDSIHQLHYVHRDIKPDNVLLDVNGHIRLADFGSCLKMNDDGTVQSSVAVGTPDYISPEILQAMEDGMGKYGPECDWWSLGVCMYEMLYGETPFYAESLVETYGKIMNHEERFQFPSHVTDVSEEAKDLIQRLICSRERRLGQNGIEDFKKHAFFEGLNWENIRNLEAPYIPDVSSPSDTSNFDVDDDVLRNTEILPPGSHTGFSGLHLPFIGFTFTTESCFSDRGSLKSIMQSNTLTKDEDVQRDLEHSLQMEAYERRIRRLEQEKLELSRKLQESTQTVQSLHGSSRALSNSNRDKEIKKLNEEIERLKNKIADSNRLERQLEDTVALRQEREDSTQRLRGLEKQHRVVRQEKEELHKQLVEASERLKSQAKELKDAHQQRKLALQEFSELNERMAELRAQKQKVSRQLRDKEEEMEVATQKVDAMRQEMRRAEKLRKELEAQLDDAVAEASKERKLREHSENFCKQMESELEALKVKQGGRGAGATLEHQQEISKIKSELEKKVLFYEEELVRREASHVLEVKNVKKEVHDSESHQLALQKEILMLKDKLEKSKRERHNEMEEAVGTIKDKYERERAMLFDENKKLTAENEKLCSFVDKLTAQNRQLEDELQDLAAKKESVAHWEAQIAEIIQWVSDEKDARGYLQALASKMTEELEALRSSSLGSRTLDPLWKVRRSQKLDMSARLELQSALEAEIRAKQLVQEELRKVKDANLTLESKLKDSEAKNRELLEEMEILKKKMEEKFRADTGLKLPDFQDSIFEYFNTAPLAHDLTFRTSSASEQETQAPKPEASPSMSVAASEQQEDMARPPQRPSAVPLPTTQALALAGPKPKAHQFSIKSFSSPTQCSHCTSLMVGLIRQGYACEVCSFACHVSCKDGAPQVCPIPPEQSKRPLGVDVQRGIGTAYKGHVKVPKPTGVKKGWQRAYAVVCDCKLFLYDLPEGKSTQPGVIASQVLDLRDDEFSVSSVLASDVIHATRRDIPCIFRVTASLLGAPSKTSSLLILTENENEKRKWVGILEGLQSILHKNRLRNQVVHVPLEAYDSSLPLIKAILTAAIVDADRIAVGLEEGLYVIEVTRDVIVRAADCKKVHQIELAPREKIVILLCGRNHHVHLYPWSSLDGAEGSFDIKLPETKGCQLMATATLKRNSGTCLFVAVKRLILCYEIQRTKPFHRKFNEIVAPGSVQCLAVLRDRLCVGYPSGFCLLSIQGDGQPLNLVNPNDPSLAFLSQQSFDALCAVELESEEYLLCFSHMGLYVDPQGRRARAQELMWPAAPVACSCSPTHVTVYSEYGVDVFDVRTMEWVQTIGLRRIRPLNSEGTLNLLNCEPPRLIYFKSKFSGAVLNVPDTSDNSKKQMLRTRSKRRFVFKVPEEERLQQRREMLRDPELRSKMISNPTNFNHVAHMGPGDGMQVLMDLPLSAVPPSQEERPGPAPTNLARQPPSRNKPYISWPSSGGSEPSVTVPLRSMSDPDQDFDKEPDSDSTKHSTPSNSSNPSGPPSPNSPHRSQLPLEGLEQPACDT
UniProt O75716, sequence (whole entry, looked up): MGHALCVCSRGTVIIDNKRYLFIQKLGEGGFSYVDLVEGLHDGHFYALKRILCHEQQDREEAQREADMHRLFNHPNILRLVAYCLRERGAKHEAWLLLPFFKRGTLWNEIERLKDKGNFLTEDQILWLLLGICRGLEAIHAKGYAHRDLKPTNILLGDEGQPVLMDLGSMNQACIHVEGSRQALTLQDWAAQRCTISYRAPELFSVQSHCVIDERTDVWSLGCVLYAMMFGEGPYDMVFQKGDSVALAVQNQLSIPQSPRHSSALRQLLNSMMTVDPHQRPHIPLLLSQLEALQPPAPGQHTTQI

Sample 1
Structure (SMILES): CC1=C(C#N)[C@@H](c2ccc3[nH]nc(C)c3c2)C(C#N)=C(c2ccc(Cl)cc2)N1
Read-out: cell-free assay
Method: competition with immobilised ligand
Tested at: 1 µM
Measurement: remaining binding
target = TTK (Homo sapiens, UniProt P33981); value = 75.7%
target = MAP3K4 (Homo sapiens, UniProt Q9Y6R4); value = 67.9%
target = EGFR (Homo sapiens, UniProt P00533, del746-750); value = 75.1%
target = SRC (Homo sapiens, UniProt P12931); value = 100%
target = SRPK1 (Homo sapiens, UniProt Q96SB4); value = 100%
target = MAP4K2 (Homo sapiens, UniProt Q12851); value = 100%
target = MAP3K15 (Homo sapiens, UniProt Q6ZN16); value = 100%
target = STK36 (Homo sapiens, UniProt Q9NRP7); value = 95.9%
target = EGFR (Homo sapiens, UniProt P00533, L858R); value = 89.5%
target = NEK5 (Homo sapiens, UniProt Q6P3R8); value = 80.3%
target = MAP3K6 (Homo sapiens, UniProt O95382); value = 83.2%
target = CSNK1D (Homo sapiens, UniProt P48730); value = 100%
target = Tyrosine-protein kinase ABL1, non-phosphorylated (ABL1, Homo sapiens, UniProt P00519, F317L); value = 100%
target = CDC42BPB (Homo sapiens, UniProt Q9Y5S2); value = 100%
target = MET (Homo sapiens, UniProt P08581, M1250T); value = 25.1%
target = STK32C (Homo sapiens, UniProt Q86UX6); value = 91.2%
target = PLK1 (Homo sapiens, UniProt P53350); value = 100%
target = STK16 (Homo sapiens, UniProt O75716); value = 100%
target = HCK (Homo sapiens, UniProt P08631); value = 100%
target = PIK3CA (Homo sapiens, UniProt P42336, Q546K); value = 93.7%
target = ACVR1B (Homo sapiens, UniProt P36896); value = 100%
target = SBK1 (Homo sapiens, UniProt Q52WX2); value = 100%
target = CHUK (Homo sapiens, UniProt O15111); value = 100%
target = Ribosomal protein S6 kinase alpha-2, N-terminal kinase domain (RPS6KA2, Homo sapiens, UniProt Q15349); value = 85.4%
target = BMPR2 (Homo sapiens, UniProt Q13873); value = 100%

Sample 2
Compound: CC(C)n1cnc(-c2ccc(F)cc2)c1-c1ncc(C(=O)Nc2ccc(N3CCN(C)CC3)cc2)[nH]1
Method: phase 2a trial
Species: idiopathic pulmonary fibrosis patients
Measurement: patients with coagulopathy
setting = 30 mg once daily, adverse event grade 4; value = 0%
setting = 60 mg once daily, adverse event grade 1; value = 0%
setting = 30 mg once daily, adverse event grade 2; value = 0%
setting = dose not given, adverse event grade 4, all dose arms pooled; value = 0%
setting = 60 mg once daily, adverse event grade 5; value = 0%
setting = dose not given, adverse event grade 3, all dose arms pooled; value = 0%

Sample 3
Target: Calcium/calmodulin-dependent protein kinase type II subunit gamma (CAMK2G, Homo sapiens, UniProt Q13555)
UniProt Q13555, sequence (whole entry, looked up): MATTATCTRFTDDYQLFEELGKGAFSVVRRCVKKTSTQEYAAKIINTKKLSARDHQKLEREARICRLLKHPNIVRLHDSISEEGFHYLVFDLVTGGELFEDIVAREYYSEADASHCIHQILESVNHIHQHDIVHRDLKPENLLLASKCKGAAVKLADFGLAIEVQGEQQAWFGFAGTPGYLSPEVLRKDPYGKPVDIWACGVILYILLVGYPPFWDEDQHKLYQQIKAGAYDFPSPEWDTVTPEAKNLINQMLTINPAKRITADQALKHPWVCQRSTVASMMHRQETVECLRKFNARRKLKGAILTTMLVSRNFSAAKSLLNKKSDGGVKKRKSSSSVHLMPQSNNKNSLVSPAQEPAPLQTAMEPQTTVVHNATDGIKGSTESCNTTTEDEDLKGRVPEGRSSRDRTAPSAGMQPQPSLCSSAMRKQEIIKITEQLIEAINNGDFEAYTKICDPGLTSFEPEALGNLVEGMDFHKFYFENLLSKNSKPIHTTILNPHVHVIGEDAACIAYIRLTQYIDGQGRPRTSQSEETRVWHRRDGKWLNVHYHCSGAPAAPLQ
Read-out: enzyme activity
Mode: inhibitor
Tested at: 0.5 µM
Relative to: control
Measurement: remaining activity
Structure (SMILES) = Nc1ncnc2n[nH]c(Nc3ccc(F)cc3)c12; value = 119%
Structure (SMILES) = NCCNc1ncc(C(N)=O)c(Nc2cccc(C(F)(F)F)c2)n1; value = 85.7%
Structure (SMILES) = OCC(O)CCON=C1C(c2c(O)[nH]c3ccccc23)=Nc2ccccc21 (centres unmarked); value = 35.3%
Structure (SMILES) = CN(C)c1ccc(C=C2C(=O)Nc3ccccc32)cc1; value = 99.6%
Structure (SMILES) = COc1cc2ncnc(Nc3ccc(Oc4ccccc4)cc3)c2cc1OC; value = 94%
Structure (SMILES) = N#CC(C#N)=C(N)/C(C#N)=C/c1ccc(O)cc1; value = 89.4%
Structure (SMILES) = COc1ccc(OC)c2c(=S)c3ccccc3[nH]c12; value = 95.8%
Structure (SMILES) = CC(C)[C@H](CO)Nc1nc(Nc2cc(N)cc(Cl)c2)c2ncn(C(C)C)c2n1; value = 104%
Structure (SMILES) = Oc1ccc(-c2nc(-c3ccncc3)c(-c3ccc(F)cc3)[nH]2)cc1; value = 101%
Structure (SMILES) = Cn1c2ccccc2c2c3c(c4c5ccccc5n(CCC#N)c4c21)CNC3=O; value = 21.9%
Structure (SMILES) = O=C1NC(=O)C(c2cn(CCCO)c3ncccc23)=C1c1cnccn1; value = 90.6%
Structure (SMILES) = COc1cc2ncnc(Nc3ccc(F)c(Cl)c3)c2cc1OCCCN1CCOCC1; value = 128%
Structure (SMILES) = CCOC(=O)c1c(C)[nH]c(/C=C2\C(=O)Nc3ccccc32)c1C; value = 97.6%
Structure (SMILES) = O=C(O)c1ccc2c3c1cccc3c(=O)n1c3ccccc3nc21; value = 96.5%
Structure (SMILES) = Cn1sc(=O)n(Cc2ccccc2)c1=O; value = 90.1%

Sample 4
Organism: Sarcocystis neurona
Read-out: parasite growth
Tested at: 10 µM
Measurement: inhibition
SMILES = COc1cccc2c1C(=O)c1c(O)c3c(c(O)c1C2=O)C[C@@](O)(C(=O)CO)C[C@@H]3O[C@H]1C[C@H](N)[C@@H](O)[C@H](C)O1; value = 79.2%
SMILES = OCCN(CCO)c1nc(N2CCCCC2)c2nc(N(CCO)CCO)nc(N3CCCCC3)c2n1; value = -27.8%
SMILES = CN1CCCC(n2nc(Cc3ccc(Cl)cc3)c3ccccc3c2=O)CC1 (centres unmarked); value = 83.2%
SMILES = Nc1ccc2cn[nH]c2c1; value = -26.2%
SMILES = O=C1[C@H](CC[C@H](O)c2ccc(F)cc2)[C@@H](c2ccc(O)cc2)N1c1ccc(F)cc1; value = 24.2%
SMILES = [H]/N=C(/NCCCCC)N/N=C/c1c[nH]c2ccc(OC)cc12; value = 98.6%
SMILES = O=C(O[C@@H]1Cc2c(O)cc(O)cc2O[C@@H]1c1cc(O)c(O)c(O)c1)c1cc(O)c(O)c(O)c1; value = -24.7%

Excerpt of the above (sample 1):
target = NEK5 (Homo sapiens, UniProt Q6P3R8); value = 80.3%
target = MAP3K6 (Homo sapiens, UniProt O95382); value = 83.2%
target = CSNK1D (Homo sapiens, UniProt P48730); value = 100%
